Experimental data pooled from the literature.
Parts stem from different laboratories: compare values within a part only.
Sequence of UniProt O95747 (whole entry, looked up): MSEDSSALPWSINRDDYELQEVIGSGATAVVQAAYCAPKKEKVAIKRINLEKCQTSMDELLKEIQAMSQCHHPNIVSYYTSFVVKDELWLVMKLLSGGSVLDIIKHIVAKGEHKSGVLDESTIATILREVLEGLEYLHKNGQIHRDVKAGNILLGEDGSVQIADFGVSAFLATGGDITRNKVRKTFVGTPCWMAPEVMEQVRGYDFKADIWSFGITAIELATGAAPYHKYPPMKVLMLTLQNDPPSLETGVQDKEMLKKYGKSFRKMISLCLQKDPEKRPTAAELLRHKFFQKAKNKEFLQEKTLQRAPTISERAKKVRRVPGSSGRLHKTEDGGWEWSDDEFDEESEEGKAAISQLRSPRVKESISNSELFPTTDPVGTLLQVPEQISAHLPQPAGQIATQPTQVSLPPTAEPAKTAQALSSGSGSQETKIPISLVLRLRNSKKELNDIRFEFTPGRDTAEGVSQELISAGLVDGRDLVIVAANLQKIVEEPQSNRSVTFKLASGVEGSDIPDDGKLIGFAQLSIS
Sequence of UniProt P06213 (whole entry, looked up): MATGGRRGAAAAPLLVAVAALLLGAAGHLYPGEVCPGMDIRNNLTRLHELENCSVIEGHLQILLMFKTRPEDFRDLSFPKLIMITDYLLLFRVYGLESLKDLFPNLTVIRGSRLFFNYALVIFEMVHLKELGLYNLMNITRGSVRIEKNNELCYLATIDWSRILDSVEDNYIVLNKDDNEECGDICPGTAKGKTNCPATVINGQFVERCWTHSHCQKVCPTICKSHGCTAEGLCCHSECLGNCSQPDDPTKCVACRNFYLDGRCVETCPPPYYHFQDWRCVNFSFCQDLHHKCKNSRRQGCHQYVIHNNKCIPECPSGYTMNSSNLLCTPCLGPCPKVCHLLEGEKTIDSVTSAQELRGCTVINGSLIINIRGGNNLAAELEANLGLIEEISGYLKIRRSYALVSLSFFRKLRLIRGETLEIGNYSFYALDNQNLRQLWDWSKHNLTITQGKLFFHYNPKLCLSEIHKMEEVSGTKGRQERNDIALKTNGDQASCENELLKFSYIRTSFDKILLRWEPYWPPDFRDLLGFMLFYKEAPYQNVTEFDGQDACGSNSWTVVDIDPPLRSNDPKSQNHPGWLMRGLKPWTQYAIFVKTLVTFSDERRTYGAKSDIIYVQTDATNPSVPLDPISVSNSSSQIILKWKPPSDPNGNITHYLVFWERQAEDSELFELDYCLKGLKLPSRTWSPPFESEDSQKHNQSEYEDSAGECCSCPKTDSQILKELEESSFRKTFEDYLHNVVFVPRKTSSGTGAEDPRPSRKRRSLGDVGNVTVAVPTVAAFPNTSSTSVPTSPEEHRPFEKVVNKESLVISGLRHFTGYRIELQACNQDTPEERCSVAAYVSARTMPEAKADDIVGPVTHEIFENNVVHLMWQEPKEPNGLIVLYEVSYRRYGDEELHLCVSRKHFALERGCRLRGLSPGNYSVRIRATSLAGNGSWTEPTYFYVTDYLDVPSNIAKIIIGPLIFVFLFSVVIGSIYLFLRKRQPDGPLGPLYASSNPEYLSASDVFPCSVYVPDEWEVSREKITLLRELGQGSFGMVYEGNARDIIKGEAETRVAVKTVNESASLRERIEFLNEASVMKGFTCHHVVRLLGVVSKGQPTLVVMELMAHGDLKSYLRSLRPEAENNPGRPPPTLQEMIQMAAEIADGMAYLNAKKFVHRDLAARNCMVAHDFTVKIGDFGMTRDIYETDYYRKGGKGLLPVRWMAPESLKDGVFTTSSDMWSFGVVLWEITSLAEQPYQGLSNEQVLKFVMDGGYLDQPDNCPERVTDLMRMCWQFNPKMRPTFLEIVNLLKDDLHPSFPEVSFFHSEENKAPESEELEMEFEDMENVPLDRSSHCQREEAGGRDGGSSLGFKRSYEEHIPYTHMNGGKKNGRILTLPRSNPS
Sequence of UniProt P48736 (whole entry, looked up): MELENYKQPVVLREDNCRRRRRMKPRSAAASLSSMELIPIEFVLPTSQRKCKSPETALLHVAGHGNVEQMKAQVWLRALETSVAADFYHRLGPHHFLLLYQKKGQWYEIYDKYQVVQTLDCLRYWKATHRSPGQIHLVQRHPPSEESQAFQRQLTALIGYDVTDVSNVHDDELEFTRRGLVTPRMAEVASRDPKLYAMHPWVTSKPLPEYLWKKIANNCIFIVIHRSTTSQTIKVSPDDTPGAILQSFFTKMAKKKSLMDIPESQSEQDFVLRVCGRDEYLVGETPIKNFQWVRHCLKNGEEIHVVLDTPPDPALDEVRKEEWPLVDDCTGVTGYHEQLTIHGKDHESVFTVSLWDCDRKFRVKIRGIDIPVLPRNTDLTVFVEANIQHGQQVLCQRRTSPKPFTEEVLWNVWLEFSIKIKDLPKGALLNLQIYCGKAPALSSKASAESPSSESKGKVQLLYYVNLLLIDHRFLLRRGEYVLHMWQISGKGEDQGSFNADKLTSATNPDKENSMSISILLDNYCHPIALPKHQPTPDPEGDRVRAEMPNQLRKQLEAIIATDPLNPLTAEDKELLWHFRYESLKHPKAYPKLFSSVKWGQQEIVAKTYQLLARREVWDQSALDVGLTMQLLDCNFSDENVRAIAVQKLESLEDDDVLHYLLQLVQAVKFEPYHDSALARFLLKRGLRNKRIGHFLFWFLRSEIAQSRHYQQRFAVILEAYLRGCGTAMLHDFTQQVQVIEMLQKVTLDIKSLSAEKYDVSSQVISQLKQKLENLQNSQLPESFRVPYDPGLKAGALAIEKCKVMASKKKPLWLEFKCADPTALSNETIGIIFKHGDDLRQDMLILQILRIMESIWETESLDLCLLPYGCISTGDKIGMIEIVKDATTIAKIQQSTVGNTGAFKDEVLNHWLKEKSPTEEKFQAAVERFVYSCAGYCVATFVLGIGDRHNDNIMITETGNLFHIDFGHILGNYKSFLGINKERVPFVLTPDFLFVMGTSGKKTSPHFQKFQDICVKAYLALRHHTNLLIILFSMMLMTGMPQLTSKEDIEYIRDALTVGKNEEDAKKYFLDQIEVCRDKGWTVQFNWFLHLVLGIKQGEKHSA
Sequence of UniProt P11309 (whole entry, looked up): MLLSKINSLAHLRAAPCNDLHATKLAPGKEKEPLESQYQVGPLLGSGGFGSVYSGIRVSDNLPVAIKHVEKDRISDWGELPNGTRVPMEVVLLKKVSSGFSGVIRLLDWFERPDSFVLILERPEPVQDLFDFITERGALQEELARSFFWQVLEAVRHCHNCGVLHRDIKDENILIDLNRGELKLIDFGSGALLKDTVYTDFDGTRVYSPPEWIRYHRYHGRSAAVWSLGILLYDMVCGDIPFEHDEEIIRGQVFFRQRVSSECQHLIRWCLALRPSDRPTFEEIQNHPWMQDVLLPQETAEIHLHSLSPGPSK
Sequence of UniProt Q8TDR2 (whole entry, looked up): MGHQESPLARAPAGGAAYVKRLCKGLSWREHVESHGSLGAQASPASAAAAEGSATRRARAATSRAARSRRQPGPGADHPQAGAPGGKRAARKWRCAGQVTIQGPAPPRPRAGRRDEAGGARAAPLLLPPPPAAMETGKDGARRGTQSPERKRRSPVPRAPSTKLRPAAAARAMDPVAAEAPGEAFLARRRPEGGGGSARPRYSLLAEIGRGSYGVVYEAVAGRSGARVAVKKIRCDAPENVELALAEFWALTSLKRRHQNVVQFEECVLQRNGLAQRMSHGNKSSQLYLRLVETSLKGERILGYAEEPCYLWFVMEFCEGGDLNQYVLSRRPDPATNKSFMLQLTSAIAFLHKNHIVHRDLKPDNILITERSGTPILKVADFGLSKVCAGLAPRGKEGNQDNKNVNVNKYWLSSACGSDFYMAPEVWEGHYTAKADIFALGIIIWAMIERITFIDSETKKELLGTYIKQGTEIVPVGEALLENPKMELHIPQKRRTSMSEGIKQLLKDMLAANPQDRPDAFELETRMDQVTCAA

Sample 1
Target: Serine/threonine-protein kinase Nek7 (NEK7, Homo sapiens, UniProt Q8TDX7)
Effect on: enzyme activity
Mode: inhibitor
Concentration: 0.5 µM
Baseline: control
Residues (Q8TDX7 1-302): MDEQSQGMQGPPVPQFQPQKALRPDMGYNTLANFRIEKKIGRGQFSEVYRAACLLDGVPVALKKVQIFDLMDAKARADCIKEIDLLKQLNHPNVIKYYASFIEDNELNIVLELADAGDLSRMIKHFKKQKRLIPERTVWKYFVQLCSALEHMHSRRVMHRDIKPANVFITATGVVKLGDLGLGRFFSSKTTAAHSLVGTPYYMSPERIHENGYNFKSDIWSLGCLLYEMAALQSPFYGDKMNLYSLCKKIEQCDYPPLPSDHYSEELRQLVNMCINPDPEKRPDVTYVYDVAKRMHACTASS
SMILES | remaining activity [%]
Cc1cc(Nc2nc(-c3ccccc3)nc3ccccc23)n[nH]1 | 97.7
CSc1nc(-c2ccnc(N[C@@H](C)c3ccccc3)c2)c(-c2ccc(F)cc2)[nH]1 (racemic) | 89.6
Cc1cncc2cccc(S(=O)(=O)N3CCCN(C(=O)CN)C[C@@H]3C)c12 | 103
COc1cc(Nc2c(C#N)cnc3cc(OCCCN4CCN(C)CC4)c(OC)cc23)c(Cl)cc1Cl | 94.6
CCc1[nH]c(-c2ccc(OC)cc2)nc1-c1ccncc1 | 99.8
CC(C)(C)n1nc(Cc2cccc3ccccc23)c2c(N)ncnc21 | 103
O=C1NC(=O)C(c2c[nH]c3ccccc23)=C1c1c[nH]c2ccccc12 | 99.9
O=S(=O)(NCCNC/C=C/c1ccc(Br)cc1)c1cccc2cnccc12 | 96.9
CCCC(=O)Oc1ccc2[nH]c(C(=O)c3cc4ccccc4[nH]3)cc2c1 | 95.5
CC[n+]1c(/C=C/N(C)c2ccccc2)n(-c2ccccc2)c2ccc(-c3nc4ccccc4s3)cc21 | 95.4
Fc1ccc(-c2nc3n(c2-c2ccncc2)CCS3)cc1 | 105
Nc1ncnc2c1cnn2-c1ccccc1 | 106
CC#CC(=O)Nc1cc2c(Nc3ccc(F)c(Cl)c3)ncnc2cn1 | 98.2
CC(=O)c1ccc(N2CCOCC2)cc1O | 101
NC(=O)c1ccc(N(C(N)=O)c2c(F)cccc2F)nc1-c1ccc(F)cc1F | 90.1
COc1ccc(S(=O)(=O)N(CCO)c2ccccc2CN(C)CC=Cc2ccc(Cl)cc2)cc1 | 93.4
Cc1ccc(NC2=CC(=O)c3sc(C)nc3C2=O)cc1 | 96.9
Nc1nc(Nc2ccc(S(N)(=O)=O)cc2)nn1C(=O)c1c(F)cccc1F | 99
O=C1Cc2c([nH]c3ccc([N+](=O)[O-])cc23)-c2ccccc2N1 | 89.7
N#CC(=C(N)Sc1ccc(N)cc1)c1ccccc1C(F)(F)F | 93.9
Nc1nccc(-c2c(-c3ccc(F)cc3)ncn2C2CCNCC2)n1 | 98.9

Sample 2
Compound: C[C@H](c1ccnc(Nc2nc3ccc(-c4cc(N(C)C)ncn4)cc3[nH]2)c1)N1CCN(C(=O)CC(F)(F)F)CC1
Effect on: cell-free assay
Technique: competition with immobilised ligand
Concentration: 0.1 µM
target | remaining binding
Tyrosine-protein kinase ABL1, phosphorylated (ABL1, Homo sapiens, UniProt P00519, H396P) | 87%
TSSK1B (Homo sapiens, UniProt Q9BXA7) | 100%
PIK3CG (Homo sapiens, UniProt P48736) | 100%
OXSR1 (Homo sapiens, UniProt O95747) | 100%
EGFR (Homo sapiens, UniProt P00533, L858R) | 95%
Aurora kinase A (AURKA, Homo sapiens, UniProt O14965) | 100%
PIK3CA (Homo sapiens, UniProt P42336, E545K) | 100%
MAP4K4 (Homo sapiens, UniProt O95819) | 91%
Aurora kinase B (AURKB, Homo sapiens, UniProt Q96GD4) | 100%
PIM1 (Homo sapiens, UniProt P11309) | 79%
SBK3 (Homo sapiens, UniProt P0C264) | 100%
BLK (Homo sapiens, UniProt P51451) | 79%
WNK4 (Homo sapiens, UniProt Q96J92) | 80%
INSRR (Homo sapiens, UniProt P14616) | 100%
STK35 (Homo sapiens, UniProt Q8TDR2) | 100%
MAP3K3 (Homo sapiens, UniProt Q99759) | 100%
Insulin receptor (INSR, Homo sapiens, UniProt P06213) | 100%
CAMK2A (Homo sapiens, UniProt Q9UQM7) | 99%
SRC (Homo sapiens, UniProt P12931) | 100%
RET (Homo sapiens, UniProt P07949, V804M) | 76%
MET (Homo sapiens, UniProt P08581, Y1235D) | 100%
IRAK1 (Homo sapiens, UniProt P51617) | 100%
PIP4K2C (Homo sapiens, UniProt Q8TBX8) | 96%

Sample 3
Compound: C=CCc1ccc(O)c(-c2ccc(O)c(CC=C)c2)c1
Effect on: chloride current
ANO1 del476-501/E659A: Anoctamin-1 (ANO1, Homo sapiens, UniProt Q5XXA6, del476-501/E659A)
Sequence of UniProt Q5XXA6 (whole entry, unmodified, looked up): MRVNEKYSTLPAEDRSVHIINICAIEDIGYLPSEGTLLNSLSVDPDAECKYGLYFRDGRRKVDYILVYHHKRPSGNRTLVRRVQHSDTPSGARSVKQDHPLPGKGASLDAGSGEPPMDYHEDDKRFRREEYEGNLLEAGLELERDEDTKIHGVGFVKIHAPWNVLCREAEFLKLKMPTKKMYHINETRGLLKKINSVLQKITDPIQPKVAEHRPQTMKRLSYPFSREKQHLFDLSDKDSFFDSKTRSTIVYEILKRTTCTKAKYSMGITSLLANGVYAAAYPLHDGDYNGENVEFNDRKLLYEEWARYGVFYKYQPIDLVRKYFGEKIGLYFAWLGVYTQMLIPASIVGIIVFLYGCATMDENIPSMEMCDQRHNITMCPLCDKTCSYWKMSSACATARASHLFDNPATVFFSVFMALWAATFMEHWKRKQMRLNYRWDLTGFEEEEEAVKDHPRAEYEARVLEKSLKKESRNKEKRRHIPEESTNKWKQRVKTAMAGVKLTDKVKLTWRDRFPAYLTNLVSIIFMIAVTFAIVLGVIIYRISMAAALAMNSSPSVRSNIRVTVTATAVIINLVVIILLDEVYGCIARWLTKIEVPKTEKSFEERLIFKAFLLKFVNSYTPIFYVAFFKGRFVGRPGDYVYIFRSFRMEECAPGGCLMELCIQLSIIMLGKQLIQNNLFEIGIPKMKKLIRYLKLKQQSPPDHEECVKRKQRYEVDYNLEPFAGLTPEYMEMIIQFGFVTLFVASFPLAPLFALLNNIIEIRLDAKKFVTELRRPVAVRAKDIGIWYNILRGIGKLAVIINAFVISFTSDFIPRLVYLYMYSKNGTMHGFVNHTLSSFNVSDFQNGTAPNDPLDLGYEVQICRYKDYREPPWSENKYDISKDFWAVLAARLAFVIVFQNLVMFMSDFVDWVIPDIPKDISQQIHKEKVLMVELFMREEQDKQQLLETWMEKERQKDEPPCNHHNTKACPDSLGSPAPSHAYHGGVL
ANO1 del476-501/F628A: Anoctamin-1 (ANO1, Homo sapiens, UniProt Q5XXA6, del476-501/F628A)
ANO1 del476-501/K629A: Anoctamin-1 (ANO1, Homo sapiens, UniProt Q5XXA6, del476-501/K629A)
ANO1 del476-501: Anoctamin-1 (ANO1, Homo sapiens, UniProt Q5XXA6, del476-501)
ANO1 del476-501/F807A: Anoctamin-1 (ANO1, Homo sapiens, UniProt Q5XXA6, del476-501/F807A)
target | test | setting | scale | normalized current
ANO1 del476-501/E659A | inside-out patch clamp | 10 µM, membrane voltage -60 mV | – | -0.621
ANO1 del476-501/F628A | whole-cell voltage clamp | 10 µM, I-V at 100 mV, with: 4 µM Ca2+ | – | 0.74
ANO1 del476-501/K629A | inhibitor, inside-out patch clamp | 10 µM, K603A mutant at -80 mV | – | 80.5
ANO1 del476-501/K629A | inside-out patch clamp | 10 µM, membrane voltage 120 mV | – | 1
ANO1 del476-501 | whole-cell voltage clamp | 30 µM, wild type, I-V at 20 mV, with: 4 µM Ca2+ | – | 0.0138
Anoctamin-1 (ANO1, Homo sapiens, UniProt Q5XXA6, del476-501/F803A) | inhibitor, whole-cell voltage clamp | 30 µM | baseline: untreated | 0.34
ANO1 del476-501/F628A | whole-cell voltage clamp | 100 µM, concentration-response at -60 mV, with: 4 µM Ca2+ | – | -0.0917
Anoctamin-1 (ANO1, Homo sapiens, UniProt Q5XXA6) | inhibitor, inside-out patch clamp | 10 µM, wild type at -100 mV | – | -0.709
ANO1 del476-501 | whole-cell voltage clamp | 3 µM, wild type, concentration-response at -100 mV, with: 4 µM Ca2+ | – | -0.607
ANO1 del476-501/E659A | inside-out patch clamp | 10 µM, membrane voltage 60 mV | – | 0.495
Anoctamin-1 (ANO1, Homo sapiens, UniProt Q5XXA6, del476-501/E649A/R541A) | inside-out patch clamp | 10 µM, membrane voltage 100 mV | – | 0.706
ANO1 del476-501/F807A | inhibitor, whole-cell voltage clamp | 10 µM | baseline: untreated | 0.717
ANO1 del476-501 | whole-cell voltage clamp | 1 µM, wild type, concentration-response at 20 mV, with: 4 µM Ca2+ | – | 0.172
ANO1 del476-501/F628A | whole-cell voltage clamp | 1 µM, I-V at 100 mV, with: 4 µM Ca2+ | – | 0.974
ANO1 del476-501/K629A | inside-out patch clamp | 10 µM, membrane voltage 40 mV | – | 0.215
ANO1 del476-501/F628A | whole-cell voltage clamp | 10 µM, concentration-response at 100 mV, with: 4 µM Ca2+ | – | 0.734
ANO1 del476-501/F628A | whole-cell voltage clamp | 100 µM, I-V at -80 mV, with: 4 µM Ca2+ | – | -0.185
ANO1 del476-501 | whole-cell voltage clamp | 10 µM, wild type, I-V at -100 mV, with: 4 µM Ca2+ | – | -0.258
ANO1 del476-501/F628A | whole-cell voltage clamp | 3 µM, I-V at 80 mV, with: 4 µM Ca2+ | – | 0.681
ANO1 del476-501 | whole-cell voltage clamp | 3 µM, wild type, I-V at -80 mV, with: 4 µM Ca2+ | – | -0.577
ANO1 del476-501 | whole-cell voltage clamp | 30 µM, wild type, concentration-response at -60 mV, with: 4 µM Ca2+ | – | -0.0404
ANO1 del476-501 | whole-cell voltage clamp | 10 µM, wild type, I-V at 60 mV, with: 4 µM Ca2+ | – | 0.173
ANO1 del476-501/F807A | inhibitor, whole-cell voltage clamp | 1 µM | baseline: untreated | 1.04

Sample 4
Sample: hydrocarbon/water
pH: 7.4
Structure (SMILES) | logD
CCC[C@@H]1NC(=O)[C@H](C)N(C)C(=O)[C@H](CC(C)C)NC(=O)Cn2cc(nn2)CN(C)C(=O)[C@H](CC(C)C)NC(=O)[C@H](C)N(C)C(=O)[C@H](CC)NC(=O)CN(CCC)C(=O)[C@H]2CCCN2C1=O | -1.53
CC(C)CC1NC(=O)CN(CC2CCOCC2)C(=O)C2CCCN2C(=O)C(CC(C)C)NC(=O)C(C)N(C)C(=O)C(CC(C)C)NC(=O)CN(CCCOC(C)C)C(=O)C2CCCN2C(=O)C(Cc2ccccc2)NC(=O)C(C)N(C)C1=O (stereo not shown) | 2.69
CCC[C@@H]1NC(=O)[C@H](C)N(C)C(=O)[C@H](CC(C)C)NC(=O)Cn2cc(nn2)CN(C)C(=O)[C@H](CC(C)C)NC(=O)[C@H](C)N(C)C(=O)[C@H](CC)NC(=O)CN(CC)C(=O)[C@H]2CCCN2C1=O | -2.22
CC(C)C[C@@H]1NC(=O)CN(Cc2ccc3c(c2)OCO3)C(=O)[C@H](C)NC(=O)[C@H](CC(C)C)N(C)C(=O)[C@H]2CCCN2C(=O)[C@H](Cc2ccccc2)NC(=O)CN(CC2CCOCC2)C(=O)[C@H](C)NC(=O)[C@H](CC(C)C)N(C)C(=O)[C@H]2CCCN2C1=O | 1.64
CCCCCN1CC(=O)NC(CC(C)C)C(=O)N(C)C(C)C(=O)NC(C)C(=O)N2CCCC2C(=O)N(Cc2ccc3c(c2)OCO3)CC(=O)NC(CC(C)C)C(=O)N(C)C(C)C(=O)NC(CC(C)C)C(=O)N2CCCC2C1=O (stereo not shown) | 2.46
CC(C)C[C@@H]1NC(=O)[C@H](Cc2ccc(O)cc2)NC(=O)[C@H]2CCCN2C(=O)[C@H](CC2CCCCC2)NC(=O)[C@H](CC2CCCCC2)NC(=O)[C@@H](C)NC1=O | 0.0833
CC(C)CC1NC(=O)CN(CC2CCCCC2)C(=O)C2CCCN2C(=O)C(CC(C)C)NC(=O)C(C)N(C)C(=O)C(CC(C)C)NC(=O)CN(CCCOC(C)C)C(=O)C2CCCN2C(=O)C(C)NC(=O)C(C)N(C)C1=O (stereo not shown) | ≥ 3.4
CCC[C@@H]1NC(=O)[C@H](C)N(C)C(=O)[C@H](CC(C)C)NC(=O)Cn2cc(nn2)CN(C)C(=O)[C@H](CC(C)C)NC(=O)[C@H](C)N(C)C(=O)[C@H](CC2CCCCC2)NC(=O)[C@H](CC)N(C)C(=O)[C@H]2CCCN2C1=O | 0.788
CCCN1CC(=O)N[C@@H](CC2CCCCC2)C(=O)N2CCC[C@@H]2C(=O)N(C)[C@@H](C)C(=O)N[C@@H](CC2CCCCC2)C(=O)N(C)[C@@H](C)C(=O)N[C@@H](CC(C)C)C(=O)N(C)Cc2cn(nn2)CC(=O)N[C@@H](CC(C)C)C1=O | 1.79

Excerpt of the above (sample 4):
Structure (SMILES) | logD
CC(C)C[C@@H]1NC(=O)[C@H](Cc2ccc(O)cc2)NC(=O)[C@H]2CCCN2C(=O)[C@H](CC2CCCCC2)NC(=O)[C@H](CC2CCCCC2)NC(=O)[C@@H](C)NC1=O | 0.0833
CCCN1CC(=O)N[C@@H](CC2CCCCC2)C(=O)N2CCC[C@@H]2C(=O)N(C)[C@@H](C)C(=O)N[C@@H](CC2CCCCC2)C(=O)N(C)[C@@H](C)C(=O)N[C@@H](CC(C)C)C(=O)N(C)Cc2cn(nn2)CC(=O)N[C@@H](CC(C)C)C1=O | 1.79
CCC[C@@H]1NC(=O)[C@H](C)N(C)C(=O)[C@H](CC(C)C)NC(=O)Cn2cc(nn2)CN(C)C(=O)[C@H](CC(C)C)NC(=O)[C@H](C)N(C)C(=O)[C@H](CC2CCCCC2)NC(=O)[C@H](CC)N(C)C(=O)[C@H]2CCCN2C1=O | 0.788
CC(C)CC1NC(=O)CN(CC2CCCCC2)C(=O)C2CCCN2C(=O)C(CC(C)C)NC(=O)C(C)N(C)C(=O)C(CC(C)C)NC(=O)CN(CCCOC(C)C)C(=O)C2CCCN2C(=O)C(C)NC(=O)C(C)N(C)C1=O (stereo not shown) | ≥ 3.4
CCCCCN1CC(=O)NC(CC(C)C)C(=O)N(C)C(C)C(=O)NC(C)C(=O)N2CCCC2C(=O)N(Cc2ccc3c(c2)OCO3)CC(=O)NC(CC(C)C)C(=O)N(C)C(C)C(=O)NC(CC(C)C)C(=O)N2CCCC2C1=O (stereo not shown) | 2.46
CC(C)C[C@@H]1NC(=O)CN(Cc2ccc3c(c2)OCO3)C(=O)[C@H](C)NC(=O)[C@H](CC(C)C)N(C)C(=O)[C@H]2CCCN2C(=O)[C@H](Cc2ccccc2)NC(=O)CN(CC2CCOCC2)C(=O)[C@H](C)NC(=O)[C@H](CC(C)C)N(C)C(=O)[C@H]2CCCN2C1=O | 1.64
CCC[C@@H]1NC(=O)[C@H](C)N(C)C(=O)[C@H](CC(C)C)NC(=O)Cn2cc(nn2)CN(C)C(=O)[C@H](CC(C)C)NC(=O)[C@H](C)N(C)C(=O)[C@H](CC)NC(=O)CN(CC)C(=O)[C@H]2CCCN2C1=O | -2.22
CC(C)CC1NC(=O)CN(CC2CCOCC2)C(=O)C2CCCN2C(=O)C(CC(C)C)NC(=O)C(C)N(C)C(=O)C(CC(C)C)NC(=O)CN(CCCOC(C)C)C(=O)C2CCCN2C(=O)C(Cc2ccccc2)NC(=O)C(C)N(C)C1=O (stereo not shown) | 2.69
CCC[C@@H]1NC(=O)[C@H](C)N(C)C(=O)[C@H](CC(C)C)NC(=O)Cn2cc(nn2)CN(C)C(=O)[C@H](CC(C)C)NC(=O)[C@H](C)N(C)C(=O)[C@H](CC)NC(=O)CN(CCC)C(=O)[C@H]2CCCN2C1=O | -1.53
